# Measured values from different studies.
# Lines come from different studies, so protocols differ. ± gives the spread as reported.
# Chain of UniProt P41743 (whole entry, looked up): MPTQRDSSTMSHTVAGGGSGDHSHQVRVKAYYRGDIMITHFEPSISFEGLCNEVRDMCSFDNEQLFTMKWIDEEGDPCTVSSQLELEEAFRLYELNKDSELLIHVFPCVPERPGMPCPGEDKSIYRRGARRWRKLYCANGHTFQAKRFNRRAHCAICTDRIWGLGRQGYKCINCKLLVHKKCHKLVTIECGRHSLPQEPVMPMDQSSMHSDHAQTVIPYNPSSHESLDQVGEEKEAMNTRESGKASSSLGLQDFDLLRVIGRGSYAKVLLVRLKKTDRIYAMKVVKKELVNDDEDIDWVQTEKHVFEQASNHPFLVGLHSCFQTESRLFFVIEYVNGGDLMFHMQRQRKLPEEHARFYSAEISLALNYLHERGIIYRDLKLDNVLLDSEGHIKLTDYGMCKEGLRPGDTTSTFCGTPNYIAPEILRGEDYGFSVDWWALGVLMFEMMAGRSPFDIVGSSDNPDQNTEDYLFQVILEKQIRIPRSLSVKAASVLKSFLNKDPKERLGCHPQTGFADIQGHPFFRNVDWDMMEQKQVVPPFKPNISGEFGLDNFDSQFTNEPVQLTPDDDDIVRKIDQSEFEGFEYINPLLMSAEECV
# Chain of UniProt P15170 (whole entry, looked up): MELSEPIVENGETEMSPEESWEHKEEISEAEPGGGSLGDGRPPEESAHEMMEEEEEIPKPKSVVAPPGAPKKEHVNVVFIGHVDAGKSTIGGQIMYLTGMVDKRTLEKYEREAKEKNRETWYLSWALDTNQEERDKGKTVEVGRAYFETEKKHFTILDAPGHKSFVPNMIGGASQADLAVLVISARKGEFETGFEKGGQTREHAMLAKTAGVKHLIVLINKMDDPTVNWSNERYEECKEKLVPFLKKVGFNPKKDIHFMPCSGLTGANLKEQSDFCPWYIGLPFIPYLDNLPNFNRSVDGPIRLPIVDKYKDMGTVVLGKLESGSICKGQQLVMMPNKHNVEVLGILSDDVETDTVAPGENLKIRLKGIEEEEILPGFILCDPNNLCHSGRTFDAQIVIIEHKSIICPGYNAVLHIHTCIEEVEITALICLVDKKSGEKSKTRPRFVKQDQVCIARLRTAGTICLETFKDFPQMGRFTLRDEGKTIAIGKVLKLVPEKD
# Chain of UniProt Q96SW2 (whole entry, looked up): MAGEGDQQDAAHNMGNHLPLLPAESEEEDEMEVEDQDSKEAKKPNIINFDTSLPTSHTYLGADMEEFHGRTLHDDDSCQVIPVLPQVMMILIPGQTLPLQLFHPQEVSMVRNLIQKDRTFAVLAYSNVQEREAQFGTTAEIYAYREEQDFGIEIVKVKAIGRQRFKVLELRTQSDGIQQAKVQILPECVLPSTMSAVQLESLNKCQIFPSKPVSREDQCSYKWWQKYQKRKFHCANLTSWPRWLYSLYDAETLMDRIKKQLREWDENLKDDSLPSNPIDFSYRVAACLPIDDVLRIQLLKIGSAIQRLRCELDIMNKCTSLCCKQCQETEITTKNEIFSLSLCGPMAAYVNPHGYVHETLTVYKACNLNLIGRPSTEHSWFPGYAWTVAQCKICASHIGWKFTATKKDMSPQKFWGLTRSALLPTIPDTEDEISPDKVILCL
SMILES,target or system,assay,system,conditions,scale,measurement,value
O=C(O)CNC(=O)Cc1ccccc1,,,"ventricular cardiomyocytes, C57BL/6 mouse","dose not given, 0.852 s",,sarcomere length,1.62 µm
C[C@H]1C[C@H]2CSC(N)=N[C@@]2(c2nc(NC(=O)c3ccc(OC(F)F)cn3)cs2)CO1,,refers to: total Aβ,"healthy adults, plasma","3 mg single dose, 4 h post-dose",reference: placebo,percent change from baseline,-29.8%
CN(C(=O)n1cnc(-c2ccc[n+]([O-])c2)c1)C1CCCCC1,,refers to: OEA,"human, plasma",5 mg single dose,,AUC(0-t),724 ng·h/mL
CC(C)C[C@H](NC(=O)C[C@H](O)[C@H](CC(C)C)NC(=O)[C@H](Cc1c[nH]cn1)NC(=O)CNC(=O)[C@@H](NC(=O)[C@H](C)NC(=O)[C@H](Cc1c[nH]c2ccccc12)NC(=O)[C@H](CCC(N)=O)NC(=O)[C@@H](Cc1ccccc1)NC(=O)COCCOCCNC(=O)CCC(C(=O)O)N1CCN(CC(=O)O)CCN(CC(=O)O)CCN(CC(=O)O)CC1)C(C)C)C(N)=O (stereo partly drawn) [lutetium-177 labelled],,,"BALB/c nu/nu mice, carcass","100 pmol, 1 h, added: PA 300 µg",,tissue uptake,2.8 ± 0.8 %ID
Cn1cc(-c2ccc(-c3cncc(Cl)c3N3CCC4(CCNC4=O)CC3)cc2)cn1,COLO 205,"gene expression, microarray, refers to: INHBB mRNA",,"concentration not given, 2 h",reference: untreated cells,log2 fold change,2.08
CC(Nc1nc(N2CCCC2)nc2ccccc12)c1ccccc1 (stereo not drawn),transportin-1/2,"FUS nuclear import, high content imaging",HeLa Kyoto reporter,"0.0158 µM, 2 h",,cells with nuclear reporter,93.3%
CC[C@@H]1[C@H](F)C(=O)N[C@@H]1COc1nccc2cc(C(N)=O)c(OC)cc12,"PRKCI (Homo sapiens, UniProt P41743)","ATP-site binding, ActivX KiNativ profiling",THP-1 cell lysate,Lys2 PKCi probe site,,IC50,> 5 µM
OC(CCN1CCCCC1)(c1ccccc1)C1CC2C=CC1C2 (stereo not drawn),,resting-state EEG,healthy elderly humans,"oral, 4 mg, eyes closed, LS mean",reference: baseline,change in EEG Alpha1-power Fz-Cz,-30.8%
COc1cc(OC)c(-c2c(OC)cc(OC)cc2OC)c(OC)c1,human iPSC-derived cardiomyocytes,"MyBP-C/MYH ratio, plate-normalised SD score",,"concentration not given, primary screen",direction not given,activity score,3.1
c1coc(-c2n[nH]cc2-c2ccnc3ccccc23)c1,TPK1 (Candida albicans),"kinase binding, MIB/MS competition",Candida albicans lysate,1 µM,reference: DMSO,log2 fold change,-0.2
CCn1cc(-c2cc(Cn3ccnc3)cc3c2CCN([C@H](c2cc(OC)ccn2)C2CC2)C3=O)c(C(F)(F)F)n1,EBC-1,"cell growth, inhibitor",,120 h,,EC50,> 30 µM
C=CC[C@@H]1/C=C(\C)C[C@H](C)C[C@H](OC)[C@H]2O[C@@](O)(C(=O)C(=O)N3CCCC[C@H]3C(=O)O[C@H](/C(C)=C/[C@@H]3CC[C@@H](O)[C@H](OC)C3)[C@H](C)[C@@H](O)CC1=O)[C@H](C)C[C@@H]2OC,human iPSC-derived cardiomyocytes,"MyBP-C/MYH ratio, plate-normalised SD score",,"concentration not given, primary screen",direction not given,activity score,4.1
COc1cnc2cccc(N3CCc4c(cc(Cn5ccnc5C)cc4-c4cn(C)nc4C(F)(F)F)C3=O)c2c1,OVISE,"cell growth, inhibitor",,120 h,,EC50,20.8 µM
O=C(O)CC[C@H](NC(=O)N[C@@H](CCCCNC(=O)[C@H](Cc1ccc2ccccc2c1)NC(=O)CCCCCNC(=O)CN1CCN(CC(=O)O)CCN(CC(=O)O)CCN(CC(=O)O)CC1)C(=O)O)C(=O)O [gallium-68 labelled],,gamma counting,"mouse, 22Rv1 xenograft, liver","intravenous, 3.7 MBq, 2 h",,tissue uptake,6.14 ± 1.54 %ID/g
N=C(N)NCCC[C@@H](NC(=O)CCOCCOCCNC(=O)[C@H](CCCCNC(=O)CC[C@H](NC(=O)c1ccc(NCc2cnc3nc(N)[nH]c(=O)c3n2)cc1)C(=O)O)NC(=O)CO/N=C/[C@H](F)[C@@H](O)[C@H](O)[C@H](O)CO)C(=O)NCC(=O)N[C@H](CC(=O)O)C(N)=O [fluorine-18 labelled],,,"female nude mice, MDA-MB-231 xenograft, intestine without contents","dose not given, 45 min to 2.5 h",,intestinal radioactivity,≤ 1.6 %ID/g
CCCCC(CC)CN1CN(CC(CC)CCCC)CC(C)(N)C1 (stereo not drawn),human iPSC-derived cardiomyocytes,"MyBP-C/MYH ratio, plate-normalised SD score",,"concentration not given, primary screen",direction not given,activity score,8.6
CC[C@H](CO)N(CCN(N=O)[C@H](CC)CO)N=O,Escherichia coli,"mutagenicity, Ames plate incorporation",WP2 uvrA pKM101,"150 µg/plate, without S9, methanol",,revertant colonies per plate,149 ± 18
NCc1cc2c(cc1F)C(=O)N(C1CCC(=O)NC1=O)C2 (stereo not drawn),"GSPT1/CRBN (Homo sapiens, UniProt P15170+Q96SW2)","degrader, Western blot",Hep3B,6 h,,DC50,< 0.01 µM
CCCCC1C(=O)N(c2ccccc2)N(c2ccc(O)cc2)C1=O (stereo not drawn),human iPSC-derived cardiomyocytes,"MyBP-C/MYH ratio, plate-normalised SD score",,"concentration not given, primary screen",direction not given,activity score,8.5
CC(C)C[C@H](NC(=O)C[C@H](O)[C@H](CC(C)C)NC(=O)[C@H](Cc1c[nH]cn1)NC(=O)CNC(=O)[C@@H](NC(=O)[C@H](C)NC(=O)[C@H](Cc1c[nH]c2ccccc12)NC(=O)[C@H](CCC(N)=O)NC(=O)[C@@H](Cc1ccccc1)NC(=O)COCCOCCNC(=O)CN1CCN(CC(=O)O)CCN(CC(=O)O)CCN(CC(=O)O)CC1)C(C)C)C(N)=O [lutetium-177 labelled],,,"female BALB/c nu/nu mice, intestines","intravenous, 50 pmol, 1 h",,tissue uptake,1.5 ± 0.7 %ID/g
CCn1cc(-c2cc(Cn3ccoc3=N)cc3c2CCN([C@@H](C)c2cc(OC)ccn2)C3=O)c(C(F)(F)F)n1,SNU-182,"cell growth, inhibitor",,120 h,,EC50,> 30 µM
O=C1NC(=O)C(c2ccccc2)(c2ccccc2)N1,human iPSC-derived cardiomyocytes,"MyBP-C/MYH ratio, plate-normalised SD score",,"concentration not given, primary screen",direction not given,activity score,-3.3
N#Cc1ccc2c(c1)[C@H]1CCCN(C(=O)c3ccc4[nH]cnc4c3)[C@H]1C2,,refers to: HDL,human,"240 mg once daily, day 28, adjusted mean",reference: placebo,change from baseline,-1.13 mg/dL
CCOc1c([C@H](C)n2nc(C)c3c(N)ncnc32)cc(Cl)c(F)c1[C@@H]1CNC(=O)C1,,,"human, all cohorts, plasma","oral, 20 mg, day 15, geometric mean",,AUC(0-tau),12.6 µM·h

# Some of these lines once more:
SMILES,target or system,assay,system,conditions,scale,measurement,value
CC(C)C[C@H](NC(=O)C[C@H](O)[C@H](CC(C)C)NC(=O)[C@H](Cc1c[nH]cn1)NC(=O)CNC(=O)[C@@H](NC(=O)[C@H](C)NC(=O)[C@H](Cc1c[nH]c2ccccc12)NC(=O)[C@H](CCC(N)=O)NC(=O)[C@@H](Cc1ccccc1)NC(=O)COCCOCCNC(=O)CN1CCN(CC(=O)O)CCN(CC(=O)O)CCN(CC(=O)O)CC1)C(C)C)C(N)=O [lutetium-177 labelled],,,"female BALB/c nu/nu mice, intestines","intravenous, 50 pmol, 1 h",,tissue uptake,1.5 ± 0.7 %ID/g
CCn1cc(-c2cc(Cn3ccoc3=N)cc3c2CCN([C@@H](C)c2cc(OC)ccn2)C3=O)c(C(F)(F)F)n1,SNU-182,"cell growth, inhibitor",,120 h,,EC50,> 30 µM
